# Assay results collected from several papers.
# Parts stem from different laboratories: compare values within a part only. Positions count from the first letter of the parent shown.

# Set 1
# Target: ABI1, truncated, D143A, DHFR fusion (Arabidopsis thaliana)
# Method: DHFR PCA, deep sequencing
# Matrix: yeast
# Notes: methotrexate growth selection, single substitutions
# With: (+)-ABA 0.0091 µM
# Reference: wild-type fitted maximum
# Reading: higher = stronger binding
# Parent: PYL1, truncated, DHFR fusion (Arabidopsis thaliana); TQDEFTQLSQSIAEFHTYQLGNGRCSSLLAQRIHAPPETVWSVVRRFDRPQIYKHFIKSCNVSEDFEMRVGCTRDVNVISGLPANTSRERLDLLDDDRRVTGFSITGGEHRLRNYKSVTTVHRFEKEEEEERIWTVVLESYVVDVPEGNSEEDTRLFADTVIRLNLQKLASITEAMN
Variant,relative binding score [%]
T86H,22.3
L112I,-10.3
A158D,5.93
N114C,13.5
M176W,2.5
E4A,9.49
F103N,-6.13
F66P,-3.16
T120S,68.7
R32F,11.5
N22A,47.2
N61D,33.2
N149T,51.5
R49S,16.2
A175E,23.8

# Set 2
# Target: CCNF, cyclin fold, Cln2 fusion (human)
# Method: yeast growth competition, sequencing
# Matrix: yeast
# Notes: strong parent motif
# Reference: not given
# Reading: higher = stronger binding
# Parent: CDKN1B docking peptide (human); PSACRNLFGPVDH
Variant,normalised enrichment score
F8I,0.663
H13G,6.91
G9I,3.08
V11E,6.6
N6C,6.13
A3M,5.5
A3Q,3.98
N6W,2.12
S2A,7.43
S2K,7.44
N6G,2.44
A3F,6.14
A3Y,5.79

# Set 3
# Target: Interferon regulatory factor 5, full length, phosphomimetic (IRF5, Homo sapiens, UniProt Q13568-2, residues 1-514, K96S/S451D/S453D/S456D/S462D)
# Method: protein-binding microarray
# Form: double-stranded DNA, one strand shown
# Matrix: in vitro
# Tested at: 250 nM
# Notes: 60-bp whole probe
# With: salmon DNA 0.4 mg/ml
# Reference: random background probes
# Reading: higher = stronger binding
# All sequences stand within: GCCTAGCAC … GTCTTGATTCGCTTGACGCTGCTG
Strand,log fluorescence [z-score]
GACGTTTTCGACTATCGGGACGTGCTA,4.92
GACCATATCAGACTGGAGACGTGCTAG,-0.0515
GCAGTTGTCGTTCAAGGCTGGTGCTAG,-0.243
TTAGGTCTCCTTCTCATTTAGTGCTAG,0.0208
TCCCCTCCGGGACCCGCCTCGTGCTAG,-0.412
TCACCTCACAGTTTGTAACTGTGCTAG,-0.154
TTAGGTATCGGACTGCGTTAGTGCTAG,1.51
GTATTTTTCTAAACCATTTTGTGCTAG,1.35
GTAGATATCGGGTATCGATTAGTGCTA,5.91
TCATGTCCTCCTCTCTCACTGTGCTAG,-0.188
TTAGGTTTTCTTTTCCTTTAGTGCTAG,1.33
TCAAGAGTAGTTTTTCAAACTGTGCTA,0.405
TCACCATTTTTTTTCACACTGTGCTAG,1.28
TTAGGACTGCATCTCCTTTAGTGCTAG,-0.305
TCAACTTTCTTTTGCTTACTGTGCTAG,2.85
TTAGGTATCGGTTTCGGTTGGTGCTAG,9.84

# Set 4
# Target: RING finger protein unkempt homolog, zinc fingers 1-6, GST-SBP tag (UNK, Homo sapiens, UniProt Q9C0B0, residues 30-357)
# Method: RNA Bind-n-Seq
# Form: RNA
# Matrix: in vitro
# Tested at: not given
# Notes: RNA with constant flanks, human-mouse chimeric sites, ends assumed
# Reference: input RNA pool
# Reading: higher = stronger binding
# Residues (chain): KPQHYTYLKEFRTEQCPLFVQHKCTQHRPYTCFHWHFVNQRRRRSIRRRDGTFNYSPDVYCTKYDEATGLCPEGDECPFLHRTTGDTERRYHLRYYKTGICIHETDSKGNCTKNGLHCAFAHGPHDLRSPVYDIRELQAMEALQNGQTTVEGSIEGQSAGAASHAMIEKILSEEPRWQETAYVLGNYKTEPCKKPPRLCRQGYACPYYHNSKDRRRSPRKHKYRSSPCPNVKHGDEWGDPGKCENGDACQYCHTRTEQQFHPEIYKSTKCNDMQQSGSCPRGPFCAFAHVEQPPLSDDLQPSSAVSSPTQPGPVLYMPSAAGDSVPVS
Strand,bound/input enrichment [ratio]
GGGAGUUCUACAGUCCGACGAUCAAUUUCCUGUCAUACUUUUUAGACAUUCACAUCAGACUUACAGAGCACCUGGCCACAUUCUAGGUUUGAAUUAUUUCUCAGCUAUGGAUAUGAUCAAAUGAGAACACUGCUUAACUAAUGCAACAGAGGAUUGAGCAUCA,0.769
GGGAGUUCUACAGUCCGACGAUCGUCAACAGCUGCCUCAAUCCCAUUCUCUACGCCUUCCUGGAUGAGAACUUCAAGGCCUGCUUCCGCAAGUUCUGCUGUGCAUCUGCCCUGCACCGGGACGUGCAGGUGUCUGACCGCGUGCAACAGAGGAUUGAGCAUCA,0.445
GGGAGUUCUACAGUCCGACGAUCGAGCGUCUCGCUCGAACUGGGAUCAUCGUGACCACUAGUGAGGCUGUCCUCCUACAGCUGGUGGCUGACAAAGACCACCCGAAGUUCAAGGAAAUUCAGAAUCUAAUUAAGGCGAGUGCCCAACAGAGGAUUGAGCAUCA,0.104
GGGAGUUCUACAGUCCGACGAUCAGGAGGAGGUUAAAGGGUGAGAGUGGGGUGGAAGACUGUGUCAUGGCUCUGGAGACACUGUUCAGUGUUCUGCUUUCUCUGUGCAGACUGAUGGCCCCCUACACACCCUUUCUGACUGAGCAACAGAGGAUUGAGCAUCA,0.0574
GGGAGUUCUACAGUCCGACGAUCUCGGAUGCUGUGCUGGGUCACUUUUCAUAUCCUGAUCCUUCACAGUGGACAGAUGAAGAAUUAGGUAUCCCUCCUGAUGACGAGGACUGACACUGUAAACUCUCUGGACGAGUAGGAGCACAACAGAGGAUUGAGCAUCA,0.587
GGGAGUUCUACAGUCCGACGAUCUAAAUCCUGUGCCAGCACUUCGCUCAUAAAGUUUUAAAUUCUGGACCAAUAGUGUUUGUUUCCUGAUUUUUGUAUUCAAUACUUUGCCUAGUAUGUAACUCACUCUUACUGAUAAUAAAACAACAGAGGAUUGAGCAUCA,0.974
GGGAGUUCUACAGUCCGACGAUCAAAGAGAAAGCUAAAACACUAAUAGAGAAGAGGAUUGGCAAAGAGAAUUUCAUAGAGAAACUAGGAUUUAUUAGCAAACAUGAGUUAUAUUCCAGAGGCAUCUCAGAACCCCAGCCAAACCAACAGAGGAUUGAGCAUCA,10.8

# Set 5
# Target: Histone acetyltransferase KAT6A, both winged helices, GST fusion (KAT6A, Homo sapiens, UniProt Q92794, residues 1-181)
# Method: protein binding microarray
# Form: double-stranded DNA, one strand shown
# Matrix: in vitro
# Tested at: not given
# Notes: 8-mer, flanks averaged, mean of 2 arrays, mostly near background
# Reference: not given
# Reading: higher = stronger binding
# Target sequence (chain): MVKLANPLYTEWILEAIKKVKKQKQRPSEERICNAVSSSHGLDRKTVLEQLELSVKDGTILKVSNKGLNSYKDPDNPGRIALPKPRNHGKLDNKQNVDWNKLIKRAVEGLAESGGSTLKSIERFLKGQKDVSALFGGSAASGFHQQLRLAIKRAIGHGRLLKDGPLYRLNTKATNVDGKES
Strand,E-score
ACATACCA,-0.0488
GGCGTACA,0.133
ACTGCACC,-0.00912
AGCTCGGG,0.00775
CTCGAGCA,-0.166
GATGTTAC,0.0258
CGATACTC,0.0945
CGAATTCA,0.0737
GTGCTTTA,-0.108
CGACGGAA,0.311
CAGATTCA,-0.186
AGTTGAAT,-0.0153
AGATCCCG,0.194
CTTGTCAC,-0.0178
ACTAGAAA,-0.0214
CCCCAAGG,-0.202
ACTGTTCC,-0.00939
GAGATGGA,-0.175
AACACTAT,-0.013
CACATATC,-0.128
CAACCGGG,0.158
GATAGGCC,-0.0223

# Set 6
# Target: Ras GTPase-activating protein-binding protein 1, full length (G3BP1, Homo sapiens, UniProt Q13283)
# Sequence of UniProt Q13283 (whole entry, looked up): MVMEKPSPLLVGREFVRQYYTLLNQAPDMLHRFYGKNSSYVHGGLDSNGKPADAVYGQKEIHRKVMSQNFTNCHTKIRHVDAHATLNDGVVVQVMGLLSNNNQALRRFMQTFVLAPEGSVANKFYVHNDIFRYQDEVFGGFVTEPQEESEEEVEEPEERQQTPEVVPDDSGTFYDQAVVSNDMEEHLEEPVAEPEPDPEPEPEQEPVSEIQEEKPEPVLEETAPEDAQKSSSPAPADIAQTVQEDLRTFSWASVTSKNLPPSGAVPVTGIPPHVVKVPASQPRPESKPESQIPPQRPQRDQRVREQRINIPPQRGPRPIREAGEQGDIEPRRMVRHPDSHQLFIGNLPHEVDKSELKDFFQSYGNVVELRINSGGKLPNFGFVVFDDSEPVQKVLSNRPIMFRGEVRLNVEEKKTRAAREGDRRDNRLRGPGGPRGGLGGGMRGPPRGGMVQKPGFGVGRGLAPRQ
# Method: RNA Bind-n-Seq
# Form: RNA
# Matrix: in vitro
# Tested at: 200 nM
# Notes: whole 134-nt RNA, ends assumed
# With: 150 mM KCl
# Reference: input library
# Reading: higher = stronger binding
Strand,log2 enrichment
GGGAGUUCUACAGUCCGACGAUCUGGGAGGUGGAUUUUGUUUAUUUUUUUAGCUCAUUGCCAGGGGUGGGAAUUUUUUUUUAAUAUGUGUCAUGAAUAAAGUUGUUUUUGAAAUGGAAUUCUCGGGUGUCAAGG,0.108
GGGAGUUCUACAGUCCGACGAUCCUGUGCUACACAUCGUAUGUACCGAAUCGGGGCCCCCCCGGGCCCCCCCGGCCCCCCCGGGGAAAGUAUUAUGUUACGCCGUUCGGAUCUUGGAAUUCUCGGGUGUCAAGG,-1.24
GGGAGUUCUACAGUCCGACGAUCGUCCUGUGCUACACAUCGUAUGUACCGAAUCGGAAAAAAGGAAAAAAGGGGAAAAAAGGAAAGUAUUAUGUUACGCCGUUCGGAUCUGCAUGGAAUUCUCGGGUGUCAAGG,-0.823
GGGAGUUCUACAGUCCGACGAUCAGUCCUGUGCUACACAUCGUAUGUACCGAAUCGGGUUUUUGGGGUUUUUGGUUUUUGGAAAGUAUUAUGUUACGCCGUUCGGAUCUGCACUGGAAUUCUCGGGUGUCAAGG,-0.74
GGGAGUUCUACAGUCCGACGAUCUCAAGUCCUGUGCUACACAUCGUAUGUACCGAAUCGGGGAAGGGGAAGGGAAGGAAAGUAUUAUGUUACGCCGUUCGGAUCUGCACUUCCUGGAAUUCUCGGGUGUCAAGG,-0.0959
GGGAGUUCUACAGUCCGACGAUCGUCCUGUGCUACACAUCGUAUGUACCGAAUCGGGUUUUUUUGGGUGGGUUUUUUUGGGAAAGUAUUAUGUUACGCCGUUCGGAUCUGCACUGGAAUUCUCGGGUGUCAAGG,-0.103
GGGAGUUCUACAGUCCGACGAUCCCUCAAGUCCUGUGCUACACAUCGUAUGUACCGAAUCGGCCGGCCGGGCCGGAAAGUAUUAUGUUACGCCGUUCGGAUCUGCACUUCCAGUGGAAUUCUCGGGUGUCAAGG,-0.23
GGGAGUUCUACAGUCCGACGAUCCCUGUGCUACACAUCGUAUGUACCGAAUCGGUUUUUUGGGUUUUUUGGGGUUUUUUGGGGAAAGUAUUAUGUUACGCCGUUCGGAUCUGCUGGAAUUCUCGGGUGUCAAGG,-0.933
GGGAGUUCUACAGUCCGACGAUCGCAGGAAGUAAAAACAUAUGGAAAUGCUUCGGAUAGUGGCAGGGGUGGGGGUUGCUAAGGAAAGGGUGGGAUGGGAGUGGGUAAAGAGUUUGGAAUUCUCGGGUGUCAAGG,1.11
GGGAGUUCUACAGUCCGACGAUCUGGCCCUGGUGGCAUGCGGGGAGGAAGAGGUGGGCUCAUGGAUCGUGGUGGUCCCGGUGGAAUGUUCAGAGGUGGCCGUGGUGGAGACAGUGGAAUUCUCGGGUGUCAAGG,0.624
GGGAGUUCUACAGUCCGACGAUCUCCUGUGCUACACAUCGUAUGUACCGAAUCAAAUUUUUAAAUUUUUUUAAAUUUUUAAAAAAGUAUUAUGUUACGCCGUUCGGAUCUGCAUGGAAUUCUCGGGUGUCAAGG,-0.624
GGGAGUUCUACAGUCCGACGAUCGGUGCGGCUCUAUGAGUGGACAACAGAGAAGGAGCUGCGCACUGAGUGCAACCACUACAACAACAUCAUGGCCCUCUACCUGAAGACCAAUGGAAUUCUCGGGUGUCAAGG,0.112
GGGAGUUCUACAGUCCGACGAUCCUCAAGUCCUGUGCUACACAUCGUAUGUACCGAAUCGGGUUGGGUUGGGUUGGGAAAGUAUUAUGUUACGCCGUUCGGAUCUGCACUUCCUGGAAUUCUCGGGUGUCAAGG,1.05
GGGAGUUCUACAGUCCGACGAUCAGUCCUGUGCUACACAUCGUAUGUACCGAAUCAAACCCCCAAACCCCCAAACCCAAAAAAGUAUUAUGUUACGCCGUUCGGAUCUGCACUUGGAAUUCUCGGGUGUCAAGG,-0.444

# A few entries again (set 5):
Strand,E-score
GGCGTACA,0.133
ACTGCACC,-0.00912
AGCTCGGG,0.00775
CTCGAGCA,-0.166
GATGTTAC,0.0258
CGATACTC,0.0945
CGAATTCA,0.0737
